Published values of several laboratories.
Lines come from different studies, so protocols differ.
Target: Sodium-dependent dopamine transporter (SLC6A3, Homo sapiens, UniProt Q01959)
UniProt Q01959, sequence (whole entry, looked up): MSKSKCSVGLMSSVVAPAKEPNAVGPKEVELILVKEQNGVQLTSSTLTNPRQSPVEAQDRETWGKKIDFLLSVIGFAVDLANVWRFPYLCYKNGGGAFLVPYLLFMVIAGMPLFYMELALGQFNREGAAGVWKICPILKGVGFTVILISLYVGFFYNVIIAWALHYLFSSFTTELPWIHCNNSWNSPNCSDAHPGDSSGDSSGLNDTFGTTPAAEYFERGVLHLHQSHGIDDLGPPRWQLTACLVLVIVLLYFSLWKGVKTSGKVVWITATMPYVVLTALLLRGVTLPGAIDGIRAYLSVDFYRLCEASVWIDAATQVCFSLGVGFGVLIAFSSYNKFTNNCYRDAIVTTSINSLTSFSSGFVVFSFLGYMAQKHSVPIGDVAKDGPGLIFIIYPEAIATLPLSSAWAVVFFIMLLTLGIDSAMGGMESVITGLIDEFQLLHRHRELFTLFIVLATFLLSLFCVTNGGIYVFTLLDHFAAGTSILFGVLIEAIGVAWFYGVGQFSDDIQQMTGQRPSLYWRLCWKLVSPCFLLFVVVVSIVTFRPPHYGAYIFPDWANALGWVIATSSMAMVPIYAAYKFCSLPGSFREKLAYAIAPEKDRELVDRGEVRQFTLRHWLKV

COc1ccc(S(=O)(=O)N2CCc3ccccc3C2)cc1N1CCN(C(=O)c2ccc(F)cc2C(F)(F)F)CC1 has an inhibition of 8.8% (ligand displacement, radioligand; 1 µM).
CCOC(=O)C12CC1C(n1cnc3c(NC)nc(C#Cc4ccc(F)s4)nc31)C(O)C2O (stereo not shown) gave an inhibition of -320% (ligand displacement, radioligand; 10 µM).
For O=C1c2sc(-c3ccc(N4CCC(CO)CC4)nc3F)nc2CCN1c1cccnc1, the inhibition was 12% (ligand displacement, radioligand; 1 µM).
With Cc1[nH]nc2c1N=C(c1ccccc1Cl)c1cnc(N3CCOCC3)cc1N2 the inhibition was 20% (cell-free assay; 10 µM).
The inhibition of C[Si]1(C[C@H](CN)CC(=O)O)CCCC1 is reported as -8% (ligand displacement, radioligand; 70 µM).
CNC(=O)C12CC1C(n1cnc3c(NC)nc(C#Cc4ccccc4Cl)nc31)C(O)C2O (stereo not shown) gave an inhibition of -480% (ligand displacement, radioligand; 10 µM).
With COc1ccc(C(=O)Nc2c(-c3cccs3)nc3ccccn23)cc1 the inhibition was less than 50% (ligand displacement, radioligand; 10 µM).
The inhibition of O=C(O)COc1cccc(NC(=O)c2cc(-c3cccc(F)c3)ccc2F)c1 is reported as 9% (ligand displacement, radioligand; 10 µM).
For Cc1cccc(O[C@H]2CCC[C@@H](C(C)CNCc3ccncc3)C2)c1 (relative stereo), the inhibition was 97% (cell-free assay; 10 µM).
CO[C@@H](C)c1c(NC(=O)Nc2cnc(-n3nccn3)c(C(F)(F)F)c2)cnc2sc(C)nc12 gave an inhibition of 19.3% (ligand displacement, radioligand; 10 µM).
For COc1ccc(C#CC2=C[C@H]3C[C@@]4(OC(=O)C=C24)[C@H]2CC[C@H](C(OC)OC)N32)cc1, the inhibition was -10% (ligand displacement, radioligand; 10 µM).
COCC(=O)N1CCc2cc(-c3csc(NC(=O)c4cc(OC)cc(OC)c4)n3)ccc21 has an inhibition of -1% (10 µM).
The inhibition of C[Si](C)(C)C[C@@H](CN)CC(=O)O is reported as -19% (ligand displacement, radioligand; 75 µM).
For Cn1ccc2cc(-n3c(=O)[nH]c4sc5c(c4c3=O)CCCC5)ccc21, the inhibition was -1% (transporter uptake, inhibitor; 10 µM).
With CC(C)Cn1c(SCC(=O)N2CCc3ccccc3C2)nc2cc(Cl)ccc2c1=O the inhibition was -19% (ligand displacement, radioligand; 10 µM).
CC(=O)c1cnc(N)nc1N1CC[C@H]1c1nn2ccc(Cl)c2c(=O)n1-c1ccccc1 has an inhibition of 25% (ligand displacement, radioligand; 10 µM).

Repeated from above:
The inhibition of O=C(O)COc1cccc(NC(=O)c2cc(-c3cccc(F)c3)ccc2F)c1 is reported as 9% (ligand displacement, radioligand; 10 µM).
